# Experimental data of several laboratories.
# A part holds a random share of what one study measured. Positions count from the first letter of the parent shown.
# UniProt P07948, sequence (whole entry, looked up): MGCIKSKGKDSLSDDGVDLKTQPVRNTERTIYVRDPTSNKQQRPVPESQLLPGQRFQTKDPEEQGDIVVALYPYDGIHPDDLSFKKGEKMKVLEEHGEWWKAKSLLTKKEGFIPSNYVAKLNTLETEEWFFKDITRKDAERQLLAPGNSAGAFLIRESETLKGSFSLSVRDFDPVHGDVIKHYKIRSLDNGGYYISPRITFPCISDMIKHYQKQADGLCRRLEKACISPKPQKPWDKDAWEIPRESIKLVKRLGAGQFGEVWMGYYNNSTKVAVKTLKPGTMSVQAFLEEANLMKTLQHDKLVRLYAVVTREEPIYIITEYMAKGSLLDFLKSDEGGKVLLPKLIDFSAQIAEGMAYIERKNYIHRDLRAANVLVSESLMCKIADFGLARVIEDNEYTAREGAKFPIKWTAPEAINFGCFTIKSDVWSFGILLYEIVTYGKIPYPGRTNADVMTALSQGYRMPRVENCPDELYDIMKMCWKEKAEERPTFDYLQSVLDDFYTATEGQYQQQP

# Study 1 — Change: G148I; technique: DHFR PCA, deep sequencing; sample: yeast; baseline: wild-type fitted maximum; direction: higher = stronger binding
# Target: ABI1, truncated, D143A, DHFR fusion (Arabidopsis thaliana)
# Setting: methotrexate growth selection, single substitutions
# Starting sequence: PYL1, truncated, DHFR fusion (Arabidopsis thaliana); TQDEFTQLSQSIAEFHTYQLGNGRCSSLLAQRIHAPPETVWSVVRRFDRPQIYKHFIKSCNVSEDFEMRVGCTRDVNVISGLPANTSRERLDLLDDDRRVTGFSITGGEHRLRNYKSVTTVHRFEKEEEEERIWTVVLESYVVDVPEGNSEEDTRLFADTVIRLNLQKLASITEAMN
together with,relative binding score [%]
(+)-ABA 4.8 µM,-4.24
(+)-ABA 0.032 µM,-13.6
(+)-ABA 0.0091 µM,1.76
(+)-ABA 1.4 µM,-24.8
(+)-ABA 0.11 µM,-7.12
(+)-ABA 58 µM,21.9

# Study 2 — technique: protein-binding microarray; form: double-stranded DNA, one strand shown; sample: in vitro; tested at: 0.8 µM; setting: whole 60-bp probe, no competitor; direction: higher = stronger binding
# Target: Centromere-binding protein 1, full length, N-terminal tag (CBF1, Saccharomyces cerevisiae, UniProt P17106, residues 1-351)
# UniProt P17106, sequence (whole entry, looked up): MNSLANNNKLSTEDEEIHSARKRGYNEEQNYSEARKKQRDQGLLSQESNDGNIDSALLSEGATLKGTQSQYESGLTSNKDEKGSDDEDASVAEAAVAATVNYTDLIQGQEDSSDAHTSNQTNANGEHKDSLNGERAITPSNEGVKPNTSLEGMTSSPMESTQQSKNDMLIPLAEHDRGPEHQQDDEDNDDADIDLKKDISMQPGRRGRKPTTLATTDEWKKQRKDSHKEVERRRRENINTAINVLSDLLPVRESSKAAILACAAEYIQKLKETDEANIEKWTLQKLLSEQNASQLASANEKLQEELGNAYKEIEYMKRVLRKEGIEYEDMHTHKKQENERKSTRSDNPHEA
Oligonucleotide,fluorescence intensity [a.u.]
CTAATCCATTTTTAAAACGTGTGACTGTTTTCCTTCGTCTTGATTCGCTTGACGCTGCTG,746
CTACGTATTACTTTTACCGTGATGAAGATTGGCTTCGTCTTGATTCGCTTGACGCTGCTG,580
GAATGTATATATACGCATGTTCTTCATAAGTCATAGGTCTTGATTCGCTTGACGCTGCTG,570
GAACTATTGTTTTGTCATCAGAACCAAATGCCATAGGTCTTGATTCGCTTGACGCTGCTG,582
GAAAAAAGAACAGGTGACTCCGTTTTCAAAATATAGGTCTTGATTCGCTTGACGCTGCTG,2760
CTAACGTTTTAACAGCTGATAACCGCCATTTTTTTCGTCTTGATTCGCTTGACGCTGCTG,556
GAAGTTTGAAAACACCACGCAGCATTACGTCGTTAGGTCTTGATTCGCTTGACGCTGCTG,556
GAATGTAGCTGACTACACGTTTCAAACCCAATCTAGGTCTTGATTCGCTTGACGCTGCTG,579

# Study 3 — technique: protein-binding microarray; form: double-stranded DNA, one strand shown; sample: in vitro; tested at: 250 nM; setting: 60-bp whole probe; together with: salmon DNA 0.4 mg/ml; baseline: random background probes; direction: higher = stronger binding; all sequences stand within: GCCTAGCAC … GTCTTGATTCGCTTGACGCTGCTG
# Target: Interferon regulatory factor 7, full length, phosphomimetic (IRF7, Homo sapiens, UniProt Q92985, residues 1-503, S101K/S471D/S472D/S475D/S476D/S477D/S483D/S484D/S487D)
# UniProt Q92985, sequence (whole entry, unmodified, looked up): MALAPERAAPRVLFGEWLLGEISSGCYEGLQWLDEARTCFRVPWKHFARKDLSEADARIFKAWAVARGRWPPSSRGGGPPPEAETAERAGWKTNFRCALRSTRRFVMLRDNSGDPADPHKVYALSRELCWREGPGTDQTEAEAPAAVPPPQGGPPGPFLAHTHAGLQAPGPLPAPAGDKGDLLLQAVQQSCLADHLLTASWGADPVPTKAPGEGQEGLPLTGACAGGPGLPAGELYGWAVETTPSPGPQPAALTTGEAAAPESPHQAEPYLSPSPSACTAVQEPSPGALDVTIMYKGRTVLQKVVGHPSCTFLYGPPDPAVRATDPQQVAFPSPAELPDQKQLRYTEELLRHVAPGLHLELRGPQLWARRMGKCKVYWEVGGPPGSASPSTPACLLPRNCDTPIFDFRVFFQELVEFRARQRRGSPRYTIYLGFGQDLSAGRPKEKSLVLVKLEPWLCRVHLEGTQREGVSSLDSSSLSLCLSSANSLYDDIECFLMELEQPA
Oligonucleotide,log fluorescence
ACCATTTTTTTTCACTATTGGTGCTAG,0.764 z-score
TCAGCTCTGCAGCTCAGACTGTGCTAG,-0.803 z-score
TACGGTTTCGACACTGGGGACGTGCTA,3.96 z-score
AACGGTATCGGGTATCGGGACGTGCTA,0.597 z-score
ACCGTTGTAGTTTTCATTATGTGCTAG,0.465 z-score
CAGGTTTTGCTAAGTCAACTGGTGCTA,0.593 z-score
GTGTGTGTCTGATTATTTACGTGCTAG,-0.133 z-score
GACGGTCTCCTACTGCTGAAGTGCTAG,0.228 z-score

# Other studies, line by line
Structure (SMILES),target,read-out,technique,tested at,endpoint,value
C[C@H](c1ccnc(Nc2nc3ccc(-c4cc(N(C)C)ncn4)cc3[nH]2)c1)N1CCN(C(=O)CC(F)(F)F)CC1,"Tyrosine-protein kinase Lyn (LYN, Homo sapiens, UniProt P07948)",cell-free assay,competition with immobilised ligand,0.1 µM,remaining binding,97%

# Repeated from above (study 1):
together with,relative binding score [%]
(+)-ABA 58 µM,21.9
